Results of several laboratories.
Lines come from different studies, so protocols differ. ± gives the spread as reported.
Sample: plasma

Structure (SMILES) = Cn1cc(-c2ccncc2)c(-c2ccc(OCc3ccc4ccccc4n3)cc2)n1; species = rhesus monkey; route = subcutaneous; dose = 0.211 mg/kg; time = 1 h; plasma concentration = 36.8 ng/mL
Structure (SMILES) = Cc1c2c(n(-c3ccc(Cl)cc3Cl)c1-c1ccc(OS(=O)(=O)CCC(F)(F)F)cc1)CCN(N1CCCCC1)C2=O; method = LC-MS/MS; species = cynomolgus monkey 2; route = intravenous infusion; dose = 0.06 mg/kg; time = 90 min; notes = total concentration mid-point of PET; plasma concentration = 23 nM
Structure (SMILES) = O=[N+]([O-])c1ccc(CNc2nc(NCc3cccc(C(F)(F)F)c3)nc3[nH]cnc23)cc1; species = chow-fed mice; route = intraperitoneal; dose = 20 mg/kg; time = 6 h; plasma concentration = 5000 nM
Structure (SMILES) = Cc1c(C(=O)NN2CCCCC2)nc(-c2ccc(Cl)cc2Cl)n1-c1ccc(OS(=O)(=O)CCC(F)(F)F)cc1; method = LC-MS/MS; species = cynomolgus monkey 1; route = intravenous infusion; dose = 0.3 mg/kg; time = 90 min; notes = total concentration mid-point of PET; plasma concentration = 38 nM
Structure (SMILES) = CC(C)(C)c1cc(NC(=O)Nc2ccc(Oc3ccnc4[nH]c(=O)cnc34)cc2F)n(-c2ccccc2)n1; species = female NSG and nude mice; route = oral; dose = 20 mg/kg/day; time = 1 h; notes = end of therapy; plasma concentration = ~40000 nM
Structure (SMILES) = C[C@H](Oc1ccc(-c2nc(-c3ccc4[nH]cnc4c3)no2)cc1C(F)(F)F)C(F)(F)F; species = cynomolgus monkey, aneurysm model; dose = 0.1 mg/kg once daily; time = 4 h post-dose, 2 weeks dosing; plasma concentration = 17 ± 4.2 nM
Structure (SMILES) = COc1ccc2c(c1)CN(Cc1ccc(C(=O)O)cc1)CCS2; species = mdx mice; route = oral, drinking water; dose = 10 mg/kg; time = 12 wk treatment; notes = 2 h after water withdrawal; plasma concentration = 893 ng/mL
Structure (SMILES) = S=C(NCCCc1c[nH]cn1)NCCCN(Cc1ccc(Cl)c(Cl)c1)c1ccc(Br)cn1; species = male C57BL/6 mice; route = intraperitoneal; dose = 30 mg/kg; time = 0.5 h; plasma concentration = 2530 ng/mL
Structure (SMILES) = Cc1c(C(=O)NN2CCCCC2)nn(-c2ccc(Cl)cc2Cl)c1-c1ccc(Cl)cc1; method = LC-MS/MS; species = cynomolgus monkey 5; route = intravenous infusion; dose = 0.5 mg/kg; time = 90 min; notes = total concentration mid-point of PET; plasma concentration = 389 nM

Excerpt of the above:
Structure (SMILES) = Cn1cc(-c2ccncc2)c(-c2ccc(OCc3ccc4ccccc4n3)cc2)n1; species = rhesus monkey; route = subcutaneous; dose = 0.211 mg/kg; time = 1 h; plasma concentration = 36.8 ng/mL
